Experimental data from different studies.
Every numbered part comes from another study and shows a few of its results, in no order. Changes are numbered by the printed parent chain.

Block 1 — method: RNA Bind-n-Seq; molecule type: RNA; medium: in vitro; tested at: 200 nM; setting: whole 134-nt RNA, ends assumed; with: 150 mM KCl; relative to: input library; direction: higher = stronger binding; quantity: log2 enrichment
Target: Fragile X messenger ribonucleoprotein 1, C-terminal low-complexity region (Fmr1, Mus musculus, UniProt P35922)
All sequences stand within: GGGAGUUCUACAGUCCGACGAUC … UGGAAUUCUCGGGUGUCAAGG
CCUGUGCUACACAUCGUAUGUACCGAAUCGGGGAAAAAGGGGUUUUUGGGGAAAAAGGGGAAAGUAUUAUGUUACGCCGUUCGGAUCUGC: 0.4
GUCCUGUGCUACACAUCGUAUGUACCGAAUCGGGUUUUUUUGGGAGGGUUUUUUUGGGAAAGUAUUAUGUUACGCCGUUCGGAUCUGCAC: 0.058
UCAAGUCCUGUGCUACACAUCGUAUGUACCGAAUCGGAAAGGAAAGGGGAAAGGGAAAGUAUUAUGUUACGCCGUUCGGAUCUGCACUUC: -0.471
CACAGACAACACGCACCCACACAGACAAAGAGGGAAGGGGUUGGGAUGGGGACAGGGUGCACAGCAGGGCGGGGUAGGACCCCAGCCCCU: 1.23
GUCCUGUGCUACACAUCGUAUGUACCGAAUCAAACCCCCAAAUUUAAACCCCCCCAAAAAAGUAUUAUGUUACGCCGUUCGGAUCUGCAC: 0.00411
AAGUCCUGUGCUACACAUCGUAUGUACCGAAUCGGGGCCCGGGGCCCGGGCCCGGGAAAGUAUUAUGUUACGCCGUUCGGAUCUGCACUU: -1.14
AAGUCCUGUGCUACACAUCGUAUGUACCGAAUCGGGAAAAGGGAAAAGGGAAAAGGAAAGUAUUAUGUUACGCCGUUCGGAUCUGCACUU: -0.564
UAGUGAUGGUCCUAAAUAGCAUGAGUGUCAGCUGGAGCGCCCGGAUCCAGAUUUUCUUAACCUUUUGCAAGCUCACAGCAAUUCUGAUAA: -0.558
GCAGGAAGUAAAAACGAAUGGAAAUGCUUCGGAUAGUGGCAGGGGUGGGGGUUGCUAAGGAAAGGGUGGGAUGGGAGUGGGUAAAGAGUU: -0.021

Block 2 — target: CCNA1, cyclin fold, Cln2 fusion (human); method: yeast growth competition, sequencing; medium: yeast; setting: weak parent motif; relative to: not given; direction: higher = stronger binding; quantity: normalised enrichment score
Starting sequence: SLBP docking peptide (human); ARYKRKLLINDFG
ARLKRKLLINDFG [Y3L]: 0.396
ARYKRKLTINDFG [L8T]: 0.361
ARYKRKLLINDMG [F12M]: 0.147
ARYKRKLLTNDFG [I9T]: 0.357
ARYKRKLLIFDFG [N10F]: 0.31
ARYKRKLLANDFG [I9A]: 0.422
ARYKRKLLINDFI [G13I]: 0.302
ARYKRKLLINDFA [G13A]: -0.0919

Block 3 — method: protein-binding microarray; molecule type: double-stranded DNA, one strand shown; medium: in vitro; tested at: 250 nM; setting: 60-bp whole probe; with: salmon DNA 0.4 mg/ml; relative to: random background probes; direction: higher = stronger binding; quantity: log fluorescence; all sequences stand within: GCCTAGCAC … GTCTTGATTCGCTTGACGCTGCTG
Target: Interferon regulatory factor 5, full length, phosphomimetic (IRF5, Homo sapiens, UniProt Q13568-2, residues 1-514, K96S/S451D/S453D/S456D/S462D)
TTGGGTATCCTTTTCCTTTAGTGCTAG: 0.231 z-score
TTAGGTGTCGACTATCGGTTAGTGCTA: 6.4 z-score
TTAGTACTGGACTTTCGGTTAGTGCTA: 9.59 z-score
TCACTAATAAATATGAGACTGTGCTAG: 0.513 z-score
TTAGGTTTCCTACTGCTTTTGTGCTAG: 0.677 z-score
GACGGTATCAACTTTCGGGACGTGCTA: 5.5 z-score
CACGGTTTCGGGTATCGGGACGTGCTA: 7.52 z-score
GACGGTTTCGGTTTTGGGACGTGCTAG: 9.35 z-score

Mixed results
PhoQ, residues 284 288 289 292 302 303 AAQSYM  fold induction (PhoP, residues 12 14 15 18 19 LHHVQ (Escherichia coli, UniProt P23836); Sort-seq, item: YFP reporter; E. coli; PhoQ-PhoP variant library, with: 10 µM Mg2+; relative to: high Mg2+ state, higher = stronger signaling): 18.5

A few entries again (block 2):
ARYKRKLTINDFG [L8T]: 0.361
ARYKRKLLINDMG [F12M]: 0.147
ARYKRKLLTNDFG [I9T]: 0.357
ARYKRKLLIFDFG [N10F]: 0.31
